Published values of several laboratories.
Numbered parts are unrelated; each lists some results of a single study. Changes are numbered by the printed parent chain.

Series 1 — technique: RNA Bind-n-Seq; form: RNA; sample: in vitro; concentration: 365 nM; reference: no-protein control; reading: higher = stronger binding
Target: RNA binding protein fox-1 homolog 2, RRM domain, GST-SBP tag (RBFOX2, Homo sapiens, UniProt O43251-10, residues 100-194)
Notes: natural RNA segment, single round, ends assumed
Construct (chain): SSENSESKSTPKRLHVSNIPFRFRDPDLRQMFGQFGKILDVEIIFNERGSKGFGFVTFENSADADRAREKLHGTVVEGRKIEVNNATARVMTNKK
| Sequence | RBNS enrichment (R) |
| --- | --- |
| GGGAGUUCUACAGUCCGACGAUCGCCCCUGGUCCUACUCCUGCCUCGGUGAUAGAAGGAGGCAGGGUAAGGGUAUGCCCCUGGCCACUAGAGAUCCUUAGAAACAGGUCUCUGAAGGAAAGGAGAUGCCAGGAUGGAAUUCUCGGGUGCCAA | 0.43 |
| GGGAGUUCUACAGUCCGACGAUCUUAGAACCUGUCUGCCACUAUCUGAUGACUUACAUUGUGGUUUUCUACAAGCCACCUCAGUUAACUUUGGUUCCCCGUGGACUCCCAGGCUGGAGGAGGAAAGCGUGAGGUGGAAUUCUCGGGUGCCAA | 0.955 |
| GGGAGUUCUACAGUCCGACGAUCCCAUUGUUGCAUAGAGAGUGUGCACCGCUGCUAUCUUGCCAGAUCCACACUGGUCCUCCCGAAAGCCAGGUUCAUACACAGCAACUUUUUAAUUAUUCUAACAGUUACCCUGGAAUUCUCGGGUGCCAA | 0.679 |
| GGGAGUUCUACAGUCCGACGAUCGUGUUAAAACGAUCUUUCAGAUUUAGAGUGACUAUGUAAGAAUUUAGGAUUUCCUCUUUUCCAGGCACAUUGUAAACUGUGUCUACAGUUUAUCCAUAUAACUUCUCUUCUGGAAUUCUCGGGUGCCAA | 0.236 |
| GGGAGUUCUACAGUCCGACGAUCAAAACAAUGGCAGAGGAGACAUCUCUGGUGUUCCCACCACCCUAGAUGAAAAUCCACAGCACAGACCUCUACCGUGUUUCUCUUCCAUCCCUAAACCACUUCCUUAAAAUUGGAAUUCUCGGGUGCCAA | 0.401 |
| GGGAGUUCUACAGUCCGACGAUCACCCCAGCAAUUUUUCCAAAAGCCAGUCAAGGGCAUUACAUUUGUUCCUGGGACUGGCAGCUGGGCCUCCUGGGUGCCAGUCCAUCUCAAGUGCCAUAUUCUGUGAUCACUGGAAUUCUCGGGUGCCAA | 0.253 |
| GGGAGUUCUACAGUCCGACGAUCGAACACAGCGGCUGCCAGUCUCCUGGUCCCGAGAGGAGGUGGGGCCUGGCCCUGGCUCCCUCCAACCAGCUGCUCCUGGGACACAGGUGCUCCUGCUUCGGCUCUGUUUCUGGAAUUCUCGGGUGCCAA | 0.317 |
| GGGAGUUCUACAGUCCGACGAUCCUGCGGGCCUGGCUUGUGUGAGCGUGUGGACAGUGGUGGCCGCGCUGUGCCUGCUCGUGUUGCCUACAUGUCCCUGGCUGUUGAGGCGCUGCUUCAGCCUGCACCCCUCCUGGAAUUCUCGGGUGCCAA | 0.876 |
| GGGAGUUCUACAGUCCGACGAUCAGUAACCCUCAAGUGAAGUGUCUCUAUACUGUUUUAUAGAGUACUUUAACAUGAAUAGAUACCUUGUAAACUUGUAUUGUGGAUGUGUAAAUAAUAUGUACUUUGGGUUUUGGAAUUCUCGGGUGCCAA | 0.819 |
| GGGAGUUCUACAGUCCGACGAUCGUCUGUCAUUGACCUCAUUGUGUCAGCACCUUCCCCUCAAGGAGGCUGACCCUGCCCUGCCAGCUGAGACUGGGAGACGGAGUGGGCUCUGAUCCCAGGGCUUCCAGGAAUGGAAUUCUCGGGUGCCAA | 0.297 |
| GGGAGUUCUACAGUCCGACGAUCCGCCUGGCAUGGGACACCAAGUGGAAGGCCCAAGCAGCUCAUCUGCUCUUGGGACCAGGGGCCAGUUGGGUUGGGUCUGGUCACGGCAGAGCUAUUGUGGAGGGUCAGGAUGGAAUUCUCGGGUGCCAA | 1.4 |
| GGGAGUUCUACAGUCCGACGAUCUUUUGUGCCUGCUGGGAGUAAUUCCUUUAGCAAUUAAGUAUUUGGUAGCUGAAUAAGGGGUCAGAACUUCUGAAACCAGAGAUCUGUAAUCAUCUCUAUUGGCCUGGGGUUGGAAUUCUCGGGUGCCAA | 0.589 |

Series 2 — technique: protein-binding microarray; form: double-stranded DNA, one strand shown; sample: in vitro; concentration: 0.8 µM; notes: whole 60-bp probe, no competitor; reading: higher = stronger binding
Target: Centromere-binding protein 1, full length, N-terminal tag (CBF1, Saccharomyces cerevisiae, UniProt P17106, residues 1-351)
Sequence of UniProt P17106 (whole entry, looked up): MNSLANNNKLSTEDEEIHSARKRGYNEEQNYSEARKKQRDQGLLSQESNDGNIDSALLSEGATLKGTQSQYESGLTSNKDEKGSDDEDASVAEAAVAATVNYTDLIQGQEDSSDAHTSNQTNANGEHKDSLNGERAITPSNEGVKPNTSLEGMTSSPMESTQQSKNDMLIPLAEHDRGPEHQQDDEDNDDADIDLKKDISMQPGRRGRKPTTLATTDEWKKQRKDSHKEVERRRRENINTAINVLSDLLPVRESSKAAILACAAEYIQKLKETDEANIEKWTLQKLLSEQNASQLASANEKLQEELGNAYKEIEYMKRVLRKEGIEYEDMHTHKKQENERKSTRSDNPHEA
| Sequence | fluorescence intensity [a.u.] |
| --- | --- |
| GAACTTGTCCCATGTCAGGTGTAAAACTGACGGTAGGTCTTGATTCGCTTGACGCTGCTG | 1200 |
| GAACCCTTTTTGGTGCACGTTCGCTCGGCGAGTTAGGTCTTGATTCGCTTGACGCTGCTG | 656 |
| GAATTATGAGCTACCCTCGTGGCCTGAAAGATGTAGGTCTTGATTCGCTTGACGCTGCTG | 566 |
| CTACGATATCTTTATCAGGTGATTCTTACGCGCTTCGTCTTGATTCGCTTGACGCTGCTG | 3060 |
| GAACTTCGCATTAAGCGCGTGAAACTATTGGCATAGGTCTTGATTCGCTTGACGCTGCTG | 564 |
| GAACTTGGTACTTTAGTCGTGATCCTTTGACATTAGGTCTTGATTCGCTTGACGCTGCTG | 603 |
| GAAACAACAAAAATTTGCGTGATTGATAGAAGGTAGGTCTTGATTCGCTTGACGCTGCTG | 539 |
| CTATCCATTTATCATATAAAAAATTTTGGCTTATTCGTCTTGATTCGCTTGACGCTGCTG | 517 |
| CTACCCTTAATATGTCATGAGAATAAAATATTATTCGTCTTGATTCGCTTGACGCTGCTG | 620 |
| TGTACGAAGCTATAGATCACCAGTATAGTAGTTAGGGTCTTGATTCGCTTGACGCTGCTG | 548 |
| CCTAACTACTATAGTCACCAAGGATAGCTTCGTACAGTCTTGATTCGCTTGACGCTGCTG | 524 |
| CTAAAGACATCTTATCTGCTGATTATACAGATATTCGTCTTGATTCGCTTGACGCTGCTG | 555 |
| CTAAATTTTCTATAGAACGTGTATGGCTCACGATTCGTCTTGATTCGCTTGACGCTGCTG | 534 |
| CTACGCGCAGAAGTGTTGGTGATGGTGTCCAGGTTCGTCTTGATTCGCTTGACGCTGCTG | 544 |
| CTAGAAGGAGCGGGTCTGGTGAATAGTGTAAGCTTCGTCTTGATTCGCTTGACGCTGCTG | 519 |
| CTACAAGATGCCCATCACCAAAAAATAAAAAAATTCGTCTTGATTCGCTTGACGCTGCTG | 513 |
| CTATTAGCACCATCGCGCGTGCATCACTGCATGTTCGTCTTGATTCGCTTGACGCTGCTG | 556 |
| CTATATTGGCTAGCGGTCGTGACACTAATATGTTTCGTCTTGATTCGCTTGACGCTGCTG | 744 |
| GAACCAGGGGCTAATGGTGTGAAGGCACTTTCTTAGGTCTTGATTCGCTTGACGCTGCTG | 484 |
| TGTACGAAGCTATGTCATGATCATATAGTAGTTAGGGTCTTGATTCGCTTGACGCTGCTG | 573 |
| CTAAGAACGCTGAAACACGTTGTTCACATCACCTTCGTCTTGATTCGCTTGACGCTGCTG | 606 |
| GAAATAATGTCAGGTGGCGTGAACGGTACATGGTAGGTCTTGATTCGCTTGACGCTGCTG | 2820 |
| GAAAGCCTCGCTTCACGTGTAACATACACAGTTTAGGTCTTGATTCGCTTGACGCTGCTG | 1930 |

Series 3 — technique: DHFR PCA, deep sequencing; sample: yeast; together with: (+)-ABA 200 µM; reference: wild-type fitted maximum; reading: higher = stronger binding
Target: ABI1, truncated, D143A, DHFR fusion (Arabidopsis thaliana)
Notes: methotrexate growth selection, single substitutions
Parent: PYL1, truncated, DHFR fusion (Arabidopsis thaliana); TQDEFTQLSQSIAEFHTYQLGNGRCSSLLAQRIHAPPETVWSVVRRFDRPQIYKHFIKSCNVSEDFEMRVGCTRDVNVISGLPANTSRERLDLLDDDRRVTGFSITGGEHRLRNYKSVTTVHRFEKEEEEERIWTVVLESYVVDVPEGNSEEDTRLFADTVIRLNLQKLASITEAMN; partner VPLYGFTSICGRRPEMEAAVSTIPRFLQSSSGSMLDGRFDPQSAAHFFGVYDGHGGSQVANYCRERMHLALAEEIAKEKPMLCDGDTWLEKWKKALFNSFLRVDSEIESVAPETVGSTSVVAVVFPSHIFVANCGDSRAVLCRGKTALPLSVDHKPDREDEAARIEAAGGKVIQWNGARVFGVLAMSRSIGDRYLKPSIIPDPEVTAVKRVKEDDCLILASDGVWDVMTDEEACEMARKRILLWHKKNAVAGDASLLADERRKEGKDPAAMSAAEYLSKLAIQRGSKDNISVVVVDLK
| Variant | relative binding score |
| --- | --- |
| E130L | 103% |
| C72R | 86.6% |
| I105N | 52.4% |
| T17W | 71.8% |
| Q7M | 104% |
| E152V | 93.7% |
| R113V | 98.8% |
| C72W | 85% |
| E89D | 53.8% |
| W41L | -10.1% |
| R113G | 86.1% |
| R113T | 105% |
| E152K | 92.8% |
| I172G | 39% |
| E67V | 103% |
| I172P | -11.2% |
| L82C | 79.6% |
| E152P | 73.3% |
| V145P | 60% |

Series 4 — target: CCNA1, cyclin fold, Cln2 fusion (human); technique: yeast growth competition, sequencing; sample: yeast; notes: weak parent motif; reference: not given; reading: higher = stronger binding
Parent: PPP1R3F docking peptide (human); VAPRRVLFADEAL; partner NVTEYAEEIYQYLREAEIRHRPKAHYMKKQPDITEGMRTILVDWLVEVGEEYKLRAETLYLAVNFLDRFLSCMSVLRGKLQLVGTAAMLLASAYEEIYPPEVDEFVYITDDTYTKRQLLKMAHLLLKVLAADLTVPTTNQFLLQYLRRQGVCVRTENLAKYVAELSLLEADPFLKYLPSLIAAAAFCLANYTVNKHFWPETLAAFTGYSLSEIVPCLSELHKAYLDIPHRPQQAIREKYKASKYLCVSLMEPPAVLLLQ
| Variant | normalised enrichment score |
| --- | --- |
| R4A | 0.35 |
| F8L | 0.353 |
| L7A | 0.621 |
| V1A | 0.293 |
| L13A | 0.115 |
| P3A | 0.649 |

Series 5 — technique: universal PBM; form: double-stranded DNA, one strand shown; sample: in vitro; concentration: not given; reading: higher = stronger binding
Target: Sal-like protein 4, full length isoform B (SALL4, Homo sapiens, UniProt Q9UJQ4-2, residues 1-616)
Notes: 8-mer, flanks averaged, mean of replicates
| Sequence | E-score |
| --- | --- |
| CCAATTGC | -0.0223 |
| CGTGAATA | 0.177 |
| GGTAGTGA | -0.112 |
| ATTACCCA | 0.102 |
| AGATAAAG | 0.2 |
| CAAGACTC | -0.125 |
| ACGAAATG | 0.0195 |
| AACACGAA | 0.149 |
| CAAACGAA | 0.126 |
| CGTCGCTA | -0.134 |
| AACGTCGT | -0.102 |
| AGTAGTGG | -0.0372 |
| GGGTGGCA | -0.309 |
| ATCGTCAG | 0.032 |
| CAATGTGA | 0.234 |
| ACGACTCC | -0.136 |
| ACGATCGC | -0.0994 |
| CAAGGCAA | 0.0118 |
| CCTTGACG | -0.151 |
| CCCGTCAA | -0.122 |
| CTCGCAGA | -0.211 |
| TGAAACAA | 0.254 |
| CCAGCTAA | -0.0931 |
| GAATTTAC | 0.244 |
| AGCTGCCT | -0.317 |

For quick reference, copied from above (series 5):
| Sequence | E-score |
| --- | --- |
| CAAGACTC | -0.125 |
| ACGAAATG | 0.0195 |
| AACACGAA | 0.149 |
| CAAACGAA | 0.126 |
| CGTCGCTA | -0.134 |
| AACGTCGT | -0.102 |
| AGTAGTGG | -0.0372 |
| GGGTGGCA | -0.309 |
| ATCGTCAG | 0.032 |
| CAATGTGA | 0.234 |
